Measurements gathered from unrelated publications.
Numbered parts are unrelated; each lists some results of a single study. Substitutions count along the parent as printed.

Block 1
Target: ABI1, truncated, D143A, DHFR fusion (Arabidopsis thaliana, UniProt P49597)
Technique: DHFR PCA, dose-response
Medium: yeast
Setting: Hill fit, not affinity, not high confidence
Together with: (+)-ABA, dose series
Direction: lower = more sensitive
Starting sequence: PYL1, truncated, DHFR fusion (Arabidopsis thaliana, UniProt Q8VZS8); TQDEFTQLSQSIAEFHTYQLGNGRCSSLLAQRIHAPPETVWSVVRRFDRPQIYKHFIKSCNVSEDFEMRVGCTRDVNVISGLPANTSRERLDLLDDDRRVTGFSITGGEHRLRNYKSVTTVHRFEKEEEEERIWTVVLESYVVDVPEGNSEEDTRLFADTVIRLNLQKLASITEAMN
`L112K` gave an ABA EC50 of 100 µM.
With `Q2H` the ABA EC50 was 2.15 µM.
With `W41R` the ABA EC50 was 27.1 µM.
`I105F` has an ABA EC50 of 1520 µM.
`Q167P` has an ABA EC50 of 2.61 µM.
With `D48F` the ABA EC50 was 558 µM.

Block 2
Target: Histone acetyltransferase KAT6A, winged helix 2, GST fusion (KAT6A, Homo sapiens, UniProt Q92794, residues 85-181)
Technique: protein binding microarray
Molecule type: double-stranded DNA, one strand shown
Medium: in vitro
Concentration: not given
Setting: 8-mer, flanks averaged, mean of 2 arrays, mostly near background
Relative to: not given
Direction: higher = stronger binding
Residues (chain): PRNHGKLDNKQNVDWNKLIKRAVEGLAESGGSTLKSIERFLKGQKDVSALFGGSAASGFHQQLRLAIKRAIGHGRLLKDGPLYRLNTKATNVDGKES
For `AACCCGAC`, the E-score was -0.00637.
`AGGCGCAA` has an E-score of 0.154.
The E-score of `CCGCCCGA` is reported as 0.063.
For `CGTGCCCC`, the E-score was -0.0735.
For `CCAGAACA`, the E-score was -0.0169.
`CAATTAGA` has an E-score of 0.108.
The E-score of `ACGTTTCG` is reported as -0.092.
For `AGCCAATC`, the E-score was -0.035.
For `ATGCCTCG`, the E-score was 0.125.
`GGAACGAC` has an E-score of -0.0521.

Block 3
Target: CCND2, cyclin fold, Cln2 fusion (human)
Technique: yeast growth competition, sequencing
Medium: yeast
Setting: weak parent motif
Relative to: not given
Direction: higher = stronger binding
Starting sequence: GMNC docking peptide (human); KNAKRNLSSEFAN; partner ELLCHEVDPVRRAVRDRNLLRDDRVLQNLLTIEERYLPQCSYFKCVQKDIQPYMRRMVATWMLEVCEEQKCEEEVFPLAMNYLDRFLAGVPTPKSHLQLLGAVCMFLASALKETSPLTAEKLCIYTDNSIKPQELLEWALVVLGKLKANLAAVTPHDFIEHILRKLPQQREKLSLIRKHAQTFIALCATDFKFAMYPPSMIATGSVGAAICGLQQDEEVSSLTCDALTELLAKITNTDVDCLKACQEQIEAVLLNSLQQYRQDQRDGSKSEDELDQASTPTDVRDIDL
`KNAKRNLDSEFAN [S8D]` — result for “normalised enrichment score”: 0.011.
`KNAKCNLSSEFAN [R5C]`: “normalised enrichment score” 0.0534.
`KNAKRNLSEEFAN [S9E]`: “normalised enrichment score” 0.271.
Under “normalised enrichment score”, `KNAKRNLSSLFAN [E10L]` is recorded as -0.451.
Under “normalised enrichment score”, `KNAKRNLSSEFGN [A12G]` is recorded as 0.0849.
`KNADRNLSSEFAN [K4D]`: “normalised enrichment score” 0.28.

Single results of other studies
`PhoQ, residues 284 288 289 292 302 303 SLANIV` has a fold induction of 2.7 (PhoP, residues 12 14 15 18 19 SPWRL (Escherichia coli, UniProt P23836); Sort-seq, refers to: YFP reporter; E. coli; PhoQ-PhoP variant library, together with: 10 µM Mg2+; relative to: high Mg2+ state, higher = stronger signaling).

Repeated from above (block 2):
`CAATTAGA` has an E-score of 0.108.
The E-score of `ACGTTTCG` is reported as -0.092.
For `AGCCAATC`, the E-score was -0.035.
For `ATGCCTCG`, the E-score was 0.125.
